Measured values gathered from unrelated publications.
Protocols differ between the studies behind these lines.
Molecule type: double-stranded DNA, one strand shown
Aspartate aminotransferase: Aspartate aminotransferase (Streptococcus pneumoniae, UniProt Q8DNN5)
saeR full length assumed: saeR full length assumed (Staphylococcus aureus, UniProt Q2FIT4)
Chain of UniProt Q2FIT4 (whole entry, looked up): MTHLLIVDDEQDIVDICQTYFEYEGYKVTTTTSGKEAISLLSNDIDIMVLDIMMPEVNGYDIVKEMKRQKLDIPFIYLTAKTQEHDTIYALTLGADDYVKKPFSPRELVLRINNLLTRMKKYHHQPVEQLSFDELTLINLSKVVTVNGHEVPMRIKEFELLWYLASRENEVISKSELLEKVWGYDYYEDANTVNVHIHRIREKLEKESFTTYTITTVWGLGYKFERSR
dnaA full length assumed: dnaA full length assumed (Borreliella burgdorferi, UniProt P33768)
Chain of UniProt P33768 (whole entry, looked up): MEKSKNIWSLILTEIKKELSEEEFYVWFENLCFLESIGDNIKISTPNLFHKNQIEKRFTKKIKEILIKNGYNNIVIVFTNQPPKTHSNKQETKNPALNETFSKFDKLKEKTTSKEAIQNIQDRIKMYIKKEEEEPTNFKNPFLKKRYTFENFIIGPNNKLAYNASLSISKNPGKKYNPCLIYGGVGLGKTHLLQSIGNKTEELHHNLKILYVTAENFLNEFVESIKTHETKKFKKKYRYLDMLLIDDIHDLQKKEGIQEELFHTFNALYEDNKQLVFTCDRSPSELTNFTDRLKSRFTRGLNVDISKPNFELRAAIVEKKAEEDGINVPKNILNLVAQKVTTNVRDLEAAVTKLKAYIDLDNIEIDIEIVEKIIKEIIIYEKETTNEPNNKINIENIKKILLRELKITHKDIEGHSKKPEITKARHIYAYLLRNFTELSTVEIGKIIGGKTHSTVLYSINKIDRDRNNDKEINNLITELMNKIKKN
cssR 1-198: cssR 1-198 (Corynebacterium glutamicum)
basR 1-222: basR 1-222 (Escherichia coli)
T1: rgg3 1-283 (Streptococcus pyogenes); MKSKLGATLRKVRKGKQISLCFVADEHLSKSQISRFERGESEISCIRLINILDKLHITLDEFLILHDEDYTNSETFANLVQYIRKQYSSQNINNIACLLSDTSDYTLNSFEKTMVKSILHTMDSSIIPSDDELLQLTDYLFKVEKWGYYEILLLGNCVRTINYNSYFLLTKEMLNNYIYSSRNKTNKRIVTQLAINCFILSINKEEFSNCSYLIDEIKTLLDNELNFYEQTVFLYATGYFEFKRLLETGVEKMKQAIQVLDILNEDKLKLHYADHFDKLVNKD
T2: cssR 1-198 (Corynebacterium glutamicum); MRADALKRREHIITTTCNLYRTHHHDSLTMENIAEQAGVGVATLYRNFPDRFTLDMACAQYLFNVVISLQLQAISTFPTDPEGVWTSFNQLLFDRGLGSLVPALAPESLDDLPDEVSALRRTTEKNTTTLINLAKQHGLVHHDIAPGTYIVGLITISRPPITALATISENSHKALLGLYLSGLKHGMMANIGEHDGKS
T3: basR 1-222 (Escherichia coli); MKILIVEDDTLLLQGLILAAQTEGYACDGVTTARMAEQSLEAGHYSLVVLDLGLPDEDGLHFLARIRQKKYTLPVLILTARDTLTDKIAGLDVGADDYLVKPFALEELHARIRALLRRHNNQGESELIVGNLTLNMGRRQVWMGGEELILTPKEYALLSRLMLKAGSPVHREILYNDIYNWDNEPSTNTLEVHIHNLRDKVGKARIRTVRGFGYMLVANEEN
Chain of UniProt Q7DDD9 (whole entry, looked up): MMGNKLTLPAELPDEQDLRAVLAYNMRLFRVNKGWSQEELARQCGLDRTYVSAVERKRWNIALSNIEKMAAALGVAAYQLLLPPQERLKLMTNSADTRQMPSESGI
Chain of UniProt P60386 (whole entry, looked up): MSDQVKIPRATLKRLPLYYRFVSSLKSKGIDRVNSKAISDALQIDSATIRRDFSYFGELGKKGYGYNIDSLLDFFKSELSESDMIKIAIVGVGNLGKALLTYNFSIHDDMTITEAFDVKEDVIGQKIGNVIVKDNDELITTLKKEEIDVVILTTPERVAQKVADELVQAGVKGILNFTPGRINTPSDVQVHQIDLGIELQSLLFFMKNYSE

Under binding, `CAAATTCTTTAATTGTTGCTATTATATAATTTTTAAAATTAAAAATATAATCTTTAGACTTGAATTTGATTCTGTATTCACGCCCTCAATAGACGGTAAAATAAGAAAATTGTTTATATATTGTCTCCGTAGTGTTATTATACGAAATAAAAGATTTTAGGAAAAGTCGTTATATCATGCTATACCTATTCTTTGTGGTATAATTGCAAGAGGTTTAATCCG (dsDNA)` is recorded as “binds” (Aspartate aminotransferase; DNase I footprinting; added: CaCl2 1 mM, MgCl2 10 mM).
`GCGCTGTTTCCCAATCTGTCTTGATTTTATCTCTTTCCTCTTGATGTGTGTGTGTTTGGGTGTGGCTGCCGCCACCCCTTTTTTTTGGCTTTTATGTGAAGTAAAATCCGTAACAGCAAATGCTTAACTTTAACCATTTATCTGGAAGCAAGCGC (dsDNA)`: binding “binds” (NHTF full length assumed (Neisseria meningitidis, UniProt Q7DDD9); EMSA; 1-3 µM).
`TTACATTTATTAAGTTATCCTATTTATACAACTTTTGAAATTAACTAATTATTAATTAACTATAAACACTTTATAATATAGACAAAATATAGCTATCTAT (dsDNA)`: binding “binds” (saeR full length assumed; EMSA).
`GATTTATTGTAATGTTATTTTTAGCTAGCAATTTTTTTTTTAAATAAGTACAATTAATTTAGCTTAAATGTAGTC (dsDNA)` — result for binding: “binds” (dnaA full length assumed; competition; 1.4 µM).
Under binding, `CTAGGGATCCTAAAGGGGTATTAAACGCACTTCTAATAACGATTTTATAGCGCTTCAAAGATATAACACTAATTCATTTTAAATAATAATTAGTTAATGAACGCTTCTGTTAATCTTAGTAAATCAAAACATTGCTACAATTACATCCAACCTTGATTTCGTTATGTCTTCAAGGAAAAACACTTTAAGAATAGGAGCTGCAGCGATGC (dsDNA (Helicobacter pylori); blunt)` is recorded as “no binding” (mua 1-153 (Helicobacter pylori, UniProt O25538); EMSA; added: EDTA 1 mM).
Under binding, `ATAGTAAAAAAACACATTTGTAGATATTTTAAACTCGGTAAATCTTTTAATAAATATTTAATTTTATTAAAAGTTAAAAAGGTTTAATATAAAAATGTAA (dsDNA)` is recorded as “binds” (saeR full length assumed; EMSA).
Under binding, `ATATTGATCAGTCGGATACACGATATCTCTGACTCCCCGCGCTCAAAACGAGAGATTTGTGATTTTGAAAGGTGTTCATCTGCCACGAAGCACAGACTAATTTGCTTTCCTTTTCGAACTTTTCTAAGTGTGGCACCAAGTTTTGATTTCATATTTTCCCACTTTCCCAACAAAAATCAATTCAGTTTTTTTTTATTGTACAATAAATAAAAACTGAAAGGAAGTCCACTT (dsDNA)` is recorded as “binds” (T1, rgg3 1-283 (Streptococcus pyogenes); EMSA).
`CCACACAAGTTTTTGTACTTGACTACATTTAAGCTAAATTAATTGTACTTATTTAAAAAAAAAATTGCTAGCTAAAAATAACATTACAATAAATCTTATTGACATAAATTGATTTTTTTTATATAAGTAAATTATTG (dsDNA)`: binding “binds” (dnaA full length assumed; EMSA; 0.35-1.4 µM).
`ACCAGCATTGACATGGATCGATGGATCGTAGACGCGCCCACCCCAAGGGTTTCGGCGGCACCGGAAATGGTCAAACTTCCAGAGTCACGGAGCAGCAAAATGAGCTGCAATGCAATGTCGACAGAGCTTAGAAATTCTTTCGGGGGTAACCCCTGGGTGGGGGCGACGTTATCCATAATCACTCTTTCCAGATAGCGGAATCCCTTTGATTGTAACTTGGCTCACCTCGATTATGTGTT (dsDNA (Corynebacterium glutamicum))` — result for binding: “no binding” (T2, cssR 1-198 (Corynebacterium glutamicum); EMSA).
`GTATCGACATGTGAATAATATCACAAAAACAGAGAATATATATTTAACTATTTATTAAATGATTTTGTTAATATTATTAAATACTTTATCCTCTTTAAAA (dsDNA)` — result for binding: “binds” (saeR full length assumed; EMSA).
Under binding, `GCAACCGTTTTCACTTTCCGTGCTTCTCCTAAAGACAGAAGCATCGACTTCGTGTAGGGTTTGCCAGCAAATTTATTTATCAACCGTCTTACAGACGCTTCCATTCTGGTTAGTGGTAGCGATGATGCTATGCATAAAAACCTTGAAGCCTGCGCCTGGCGCGGTCAGGTCGGTGTCACTATGGCAACAAGCCTAAAGGCATAACCCGACAGGGATAAGACGAAAAATCCGAGATTAGTTAACCATATATGAATCCAGTACCCGCGCAACGTGAATATTTCC (dsDNA (Escherichia coli))` is recorded as “binds” (T3, basR 1-222 (Escherichia coli); EMSA).
`TTGTCATTATTAAAAACCTCGCTTTTAAAAGATTGAAAAGTAAATGAGTGAAATTAAAGATTATGTACATTAAAATCACGCCACAATTTAATTGTGAAAAATATCACAAATATATTATAACACTAAATTTTCCAAAATTCAAAAGTGTGTTTTATTGCAGAAAACTTATAACATGTGCACAAGTTATAGCGAATTGCAAACGGATTACTTTAGTCTTTTTAAAACATGAAGTATAATTTGTATAGTAATAAATATAAAAATTGGAGGCTATGTTCAATGAGCAATA (dsDNA)`: binding “binds” (rex 1-211 (Staphylococcus aureus, UniProt P60386); EMSA).
Under binding, `TTCTAATTGCCTATGACTTTTTTTAGATAATAAATCTCTCATGAATATCTTTCTCTCTTTATAAATTATCGGATTAAACCTCTTGCAATTATACCACAAAGAATAGGTATAGCATGATATAACGACTTTTCCTAAAATCTTTTATTTCGTATAATAACACTACGGAGACAATATATAAACAATTTTCTTATTTTACCGTCTATTGAGGGCGTGAATACAGAATC (dsDNA)` is recorded as “binds” (Aspartate aminotransferase; EMSA).
`GTTTTATGTACTATTATCTTATTTCTAAATATTAACTCTATTGATTATTGGTTTTTATACTTATTTAATTTTATTCAACTTTGACAATTGAATAGAAAGCAA (dsDNA)`: binding “binds” (saeR full length assumed; EMSA).
Under binding, `CCATTGAGAGACATTTCAAACTCCTTTGAAGGTTTGTGATCCCAGACACTTCGTCGGGGCGTGATACCAATGAAAACTCATAACGTTGAAAATGTCAACTATTAATTTTGAAAACTTACATCGTTCGCTTGACGCACAGAATGCATGCATGTTCAAATGATTGAAGATCGAAACTATTTTTCAGCCAGTTCACATGG (dsDNA (Corynebacterium glutamicum))` is recorded as “no binding” (T2, cssR 1-198 (Corynebacterium glutamicum); EMSA).
`AGATGCTCAGCAGAATCCCCCACATCCTGAAGGAGGTGTATTCAGACAGGCATCCCACCTGACTTCGAATGATGATTATTCATCACTATAGAGAGCATTGATTCTAAGTGTCATATGAAAGTACCAATTGATATATATCAAACAAAATAACCCTGATTAATGAATTATTACGTTTATCATG (dsDNA (Escherichia coli))` — result for binding: “binds” (T3, basR 1-222 (Escherichia coli); EMSA).
For `TAAAAAAGATGATAACACCTTCTACACCTCCATATCACAAAAATTATAACATTATTTTGACATAAATACTACATTTGTAATATACTACAAATGTAGTCTT (dsDNA)`, binding read “no binding” (saeR full length assumed; EMSA).
